Published values of several laboratories.
TDP1: Tyrosyl-DNA phosphodiesterase 1 (TDP1, Homo sapiens, UniProt Q9NUW8)
Sequence of UniProt Q9NUW8 (whole entry, looked up): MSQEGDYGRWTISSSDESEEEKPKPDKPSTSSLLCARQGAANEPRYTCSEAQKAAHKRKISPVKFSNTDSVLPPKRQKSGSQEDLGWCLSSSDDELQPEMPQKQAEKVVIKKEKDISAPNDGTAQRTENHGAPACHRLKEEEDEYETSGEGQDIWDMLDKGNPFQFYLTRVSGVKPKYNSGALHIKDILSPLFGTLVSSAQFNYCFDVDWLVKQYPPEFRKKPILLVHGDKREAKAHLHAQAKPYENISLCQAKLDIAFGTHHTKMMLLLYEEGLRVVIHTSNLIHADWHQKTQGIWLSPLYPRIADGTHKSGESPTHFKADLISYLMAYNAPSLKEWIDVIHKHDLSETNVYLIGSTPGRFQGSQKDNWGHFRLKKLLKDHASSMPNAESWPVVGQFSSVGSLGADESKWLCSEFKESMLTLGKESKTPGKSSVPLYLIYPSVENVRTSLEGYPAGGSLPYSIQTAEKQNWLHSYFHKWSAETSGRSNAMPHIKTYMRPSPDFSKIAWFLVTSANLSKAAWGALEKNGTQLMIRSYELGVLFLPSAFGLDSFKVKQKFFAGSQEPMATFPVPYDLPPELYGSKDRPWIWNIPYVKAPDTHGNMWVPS

SMILES = COc1cc(/C=C/C(=O)/C=C(O)/C=C/c2ccc(OCC(=O)N3CCOCCOCCOCC3)c(OC)c2)ccc1OCC(=O)N1CCOCCOCCOCC1; tested on = HCT-15; test = cell growth or viability, SRB; setting = 25 µM; measurement = inhibition; result = 30.1%
SMILES = C1=[N+]2CCCC[N+]3=Cc4ccc5[n]4[Au-]23[n]2c1ccc2-c1nc2ccccc2nc1-5.F[P-](F)(F)(F)(F)F; tested on = HCT-15; test = NCI60 five-dose screen; measurement = TGI; result = 4 -log M
SMILES = Cc1ccc(C(C)C)cc1.Cc1ccc(C(C)C)cc1.Cc1ccc(C(C)C)cc1.Cc1ccc(C(C)C)cc1.O=S(=O)(O)C(F)(F)F.O=S(=O)(O)C(F)(F)F.O=S(=O)(O)C(F)(F)F.O=S(=O)(O)C(F)(F)F.c1ccc2c3c4ccccc4c(c2c1)-c1cn(nn1)-c1cc[n+](cc1)[Ru-]1[O]c2c4ccccc4c4c5c(c6ccccc6c(c25)=[O+]1)=[O+][Ru-]([O]4)[n+]1ccc(cc1)-n1cc(nn1)-c1c2ccccc2c(c2ccccc12)-c1cn(nn1)-c1cc[n+](cc1)[Ru-]1[O]c2c4ccccc4c4c5c(c6ccccc6c(c25)=[O+]1)=[O+][Ru-]([O]4)[n+]1ccc(cc1)-n1cc-3nn1; tested on = HCT-15; test = cell growth, MTT; setting = 24 h, 20 µM preincubated in medium 48 h at 37 °C; measurement = IC50; result = > 20 µM
SMILES = CCCC(CCC)C(=O)OCc1cn(-c2cc3ccccc3oc2=O)nn1; tested on = HCT-15; test = NCI60 single-dose screen; setting = 10 µM; measurement = growth percentage; result = 102%
SMILES = CCN(C(=O)c1cc(F)ccc1Oc1nncnc1N1CCC2(C1)CN([C@H](CCCN(C)CCOC)C(C)C)C2)C(C)C; tested on = HCT-15; test = cell growth or viability; setting = 72 h; measurement = GI50; result = > 10 µM
SMILES = O=C(Nc1nnc2c1c(-c1ccc(Cl)cc1)nc1sc(=Cc3ccco3)c(=O)n12)c1ccccc1 (mixture of isomers); tested on = HCT-15; test = SRB; setting = 10 µM, NCI60 single-dose screen, colon cancer; how to read = reference: untreated; measurement = cell growth; result = 31.7%
SMILES = O=C(O)c1ccc(Nc2c(-c3ccc(CON=Cc4ccccc4)cc3)nc3cc(-c4ccccc4)ccn23)cc1; tested on = TDP1; test = enzyme activity, inhibitor; setting = 100 µM, unpurified compound; measurement = inhibition; result = 22.4%
SMILES = O=C(CCl)c1ccccc1Nc1cccc(C(F)(F)F)c1; tested on = HCT-15; test = cell growth or viability, SRB; setting = 48 h; measurement = GI50; result = 11.2 µM
SMILES = COc1ccc(Br)c(C=NOCc2ccc3nc(-c4ccccc4)c(Nc4ccc(C(=O)O)cc4)n3c2)c1OC (mixture of isomers); tested on = TDP1; test = enzyme activity, inhibitor; setting = 100 µM, unpurified compound; measurement = inhibition; result = 45.5%
SMILES = COc1cc(/C=C/C(=O)/C=C(O)/C=C/c2ccc(OCC(=O)N3CCOCCOCCOCCOCC3)c(OC)c2)ccc1OCC(=O)N1CCOCCOCCOCCOCC1; tested on = HCT-15; test = cell growth or viability, SRB; setting = 25 µM; measurement = inhibition; result = 100%

Repeated from above:
SMILES = COc1ccc(Br)c(C=NOCc2ccc3nc(-c4ccccc4)c(Nc4ccc(C(=O)O)cc4)n3c2)c1OC (mixture of isomers); tested on = TDP1; test = enzyme activity, inhibitor; setting = 100 µM, unpurified compound; measurement = inhibition; result = 45.5%
SMILES = O=C(O)c1ccc(Nc2c(-c3ccc(CON=Cc4ccccc4)cc3)nc3cc(-c4ccccc4)ccn23)cc1; tested on = TDP1; test = enzyme activity, inhibitor; setting = 100 µM, unpurified compound; measurement = inhibition; result = 22.4%
